Published values of several laboratories.
A part holds a random share of what one study measured. Substitutions count along the parent as printed.

Block 1 — target: UBE2D3 UBC core domain (UniProt P61077); technique: yeast two-hybrid; sample: yeast; setting: mostly zero background; reference: not given; reading: higher = stronger interaction
B1: RLIM RING domain (UniProt Q9NVW2); chain SFGENDALKTCSVCITEYTEGNKLRKLPCSHEYHVHCIDRWLSENSTCPICRRAVLASGNRE
B2: DEF8 RING domain (UniProt Q6ZN54); chain AGRLGCSLTEIHTLFAKHIKLDCERCQAKGFVCELCREGDVLFPFDSHTSVCADCSAVFHRDCYYDNSTTCPKCARLSLRK
B3: RNF152 RING domain (UniProt Q8N8N0); chain ETLSQDSLLECQICFNYYSPRRRPKLLDCKHTCCSVCLQQMRTSQKDVRCPWCRGVTKLPPGFS
B4: RNF31 RING domain (UniProt Q96EP0); chain AFLRRLLAQECAVCGWALPHNRMQALTSCECTICPDCFRQHFTIALKEKHITDMVCPACGRPDLTDDTQLL
B5: RNF122 RING domain (UniProt Q9H9V4); chain AKKLQLYGQTCAVCLEDFKGKDELGVLPCQHAFHRKCLVKWLEVRCVCPMCNKPIASPSEAT
Residues (chain): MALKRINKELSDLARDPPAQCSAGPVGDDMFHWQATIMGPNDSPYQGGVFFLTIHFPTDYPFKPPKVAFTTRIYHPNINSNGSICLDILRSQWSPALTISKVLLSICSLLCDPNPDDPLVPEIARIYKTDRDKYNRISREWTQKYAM
| Molecule | lacZ reporter activity |
| --- | --- |
| B1 (RLIM RING domain) | 0 |
| B2 (DEF8 RING domain) | 0 |
| AEADPLGRFTCPVCLEVYEKPVQVPCGHVFCSACLQECLKPKKPVCGVCRSALAPGVRAV (RNF114 RING domain (UniProt Q9Y508)) | 0 |
| B3 (RNF152 RING domain) | 0 |
| LGTKLEAKYLCSACRNVLRRPFQAQCGHRYCSFCLASILSSGPQNCAACVHEGIYEEGIS (TRAF2 RING domain (UniProt Q12933)) | 0 |
| QVQSRTKIEECVVCSDKKAAVLFQPCGHMCACENCANLMKKCVQCRAVVERRVPFI (MIB1 RING domain (UniProt Q86YT6)) | 0 |
| B4 (RNF31 RING domain) | 0 |
| B5 (RNF122 RING domain) | 0 |
| PEELAVNNDDCAICWDSMQAARKLPCGHLFHNSCLRSWLEQDTSCPTCRMSLNIADNNR (AMFR RING domain (UniProt Q9UKV5)) | 4920 |

Block 2 — target: CCNE1, cyclin fold, Cln2 fusion (human); technique: yeast growth competition, sequencing; sample: yeast; setting: strong parent motif; reference: not given; reading: higher = stronger binding; starting sequence: viral docking peptide; KGVKRKLFAEDSS
| Substitution | normalised enrichment score |
| --- | --- |
| KGVKRKIFAEDSS [L7I] | 4.07 |
| KGVKRCLFAEDSS [K6C] | 6.24 |
| KLVKRKLFAEDSS [G2L] | 6.71 |
| KGVKRKLFAEHSS [D11H] | 6.79 |
| KGVKRKLFAEDYS [S12Y] | 7.02 |
| KGVKRKLFAEQSS [D11Q] | 6.72 |

Block 3 — technique: protein-binding microarray; form: double-stranded DNA, one strand shown; sample: in vitro; concentration: not given; reading: higher = stronger binding
Target: Max dimerization protein 1, bHLH-zipper, MAX partner unstated (MXD1, Homo sapiens, UniProt Q05195, residues 56-136)
Setting: k-mer, scored over probes, only values ≥0.25
Target sequence (chain): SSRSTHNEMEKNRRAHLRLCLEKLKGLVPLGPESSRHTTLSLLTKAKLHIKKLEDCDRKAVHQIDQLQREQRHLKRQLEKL
| Oligonucleotide | E-score |
| --- | --- |
| ATCATGCA | 0.269 |
| ACTTGCAC | 0.254 |
| CGTGCATA | 0.329 |
| AGCCACAT | 0.25 |
| CATGGCGA | 0.265 |
| CATGTGGC | 0.456 |
| ATCACACG | 0.326 |
| ACCACGCC | 0.362 |

Block 4 — technique: protein-binding microarray; form: double-stranded DNA, one strand shown; sample: in vitro; concentration: 2540 nM top; setting: 60-bp whole probe; together with: salmon DNA 0.4 mg/ml; reference: random background probes; reading: higher = stronger binding
Target: Interferon regulatory factor 3, full length, phosphomimetic (IRF3, Homo sapiens, UniProt Q14653, residues 1-427, S386D/S396D/S398D/S402D/T404D/S405D)
Shared flanks, not repeated: GCCTAGCAC … GTGCTAGGTCTTGATTCGCTTGACGCTGCTG
Construct (chain): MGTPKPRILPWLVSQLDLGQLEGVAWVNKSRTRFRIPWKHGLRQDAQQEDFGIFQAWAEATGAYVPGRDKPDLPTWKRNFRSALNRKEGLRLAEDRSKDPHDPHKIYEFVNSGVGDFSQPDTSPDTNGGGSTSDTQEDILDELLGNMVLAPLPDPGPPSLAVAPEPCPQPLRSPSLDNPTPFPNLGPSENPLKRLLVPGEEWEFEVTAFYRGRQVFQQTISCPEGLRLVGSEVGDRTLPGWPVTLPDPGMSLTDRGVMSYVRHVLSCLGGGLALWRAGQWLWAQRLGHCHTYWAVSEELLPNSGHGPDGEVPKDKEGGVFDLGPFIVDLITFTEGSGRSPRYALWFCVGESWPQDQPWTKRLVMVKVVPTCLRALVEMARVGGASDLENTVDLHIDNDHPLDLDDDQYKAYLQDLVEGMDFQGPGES
| Oligonucleotide | fitted relative affinity [z-score] |
| --- | --- |
| CTCCCATTATATTTTAATCA | 0.675 |
| TTCGGTATCCTTCTCCTTTA | 7.37 |
| TCACATGTGGGTTCCATACT | 1.41 |
| GACGATTTCAGACTGGCGAC | 1.03 |
| GATGGACTGCTTCTCCTGAC | -0.351 |
| ACAGGACAGTCCCATCTACC | 0.832 |
| TTAGAACTGAGTTTCGATTC | 4.06 |
| TTAGGTCTCCCTTTCCTTTA | 4.3 |

A few entries again (block 2):
| Substitution | normalised enrichment score |
| --- | --- |
| KGVKRCLFAEDSS [K6C] | 6.24 |
| KLVKRKLFAEDSS [G2L] | 6.71 |
